# Measurements of several laboratories.
# Each line is one published result; not all experiments were run side by side. ± gives the spread as reported.
# KRAS with SOS1: GTPase KRas, with SOS1 (KRAS, Homo sapiens, UniProt P01116)
# PTGS2: Prostaglandin G/H synthase 2 (PTGS2, Homo sapiens, UniProt P35354)
# Chain of UniProt P35354 (whole entry, looked up): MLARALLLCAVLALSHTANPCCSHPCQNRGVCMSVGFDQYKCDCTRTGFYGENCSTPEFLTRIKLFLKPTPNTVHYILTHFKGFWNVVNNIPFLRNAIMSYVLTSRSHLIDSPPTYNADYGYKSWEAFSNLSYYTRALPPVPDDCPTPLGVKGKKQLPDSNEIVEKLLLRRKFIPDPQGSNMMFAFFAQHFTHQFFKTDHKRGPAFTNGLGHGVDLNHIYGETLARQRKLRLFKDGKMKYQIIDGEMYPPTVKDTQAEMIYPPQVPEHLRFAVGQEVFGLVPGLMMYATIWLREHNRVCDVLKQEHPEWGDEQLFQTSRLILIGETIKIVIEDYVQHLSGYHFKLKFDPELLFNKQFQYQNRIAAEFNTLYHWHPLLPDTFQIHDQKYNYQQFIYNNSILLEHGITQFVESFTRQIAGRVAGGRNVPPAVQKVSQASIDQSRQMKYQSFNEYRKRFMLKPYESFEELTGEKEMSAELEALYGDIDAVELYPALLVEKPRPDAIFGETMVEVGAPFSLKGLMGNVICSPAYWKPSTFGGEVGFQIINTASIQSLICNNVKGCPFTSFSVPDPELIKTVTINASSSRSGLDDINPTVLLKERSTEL
# Lysine--tRNA ligase, cytoplasmic: Lysine--tRNA ligase, cytoplasmic (Arabidopsis thaliana, UniProt Q9ZPI1)
# Chain of UniProt Q9ZPI1 (whole entry, looked up): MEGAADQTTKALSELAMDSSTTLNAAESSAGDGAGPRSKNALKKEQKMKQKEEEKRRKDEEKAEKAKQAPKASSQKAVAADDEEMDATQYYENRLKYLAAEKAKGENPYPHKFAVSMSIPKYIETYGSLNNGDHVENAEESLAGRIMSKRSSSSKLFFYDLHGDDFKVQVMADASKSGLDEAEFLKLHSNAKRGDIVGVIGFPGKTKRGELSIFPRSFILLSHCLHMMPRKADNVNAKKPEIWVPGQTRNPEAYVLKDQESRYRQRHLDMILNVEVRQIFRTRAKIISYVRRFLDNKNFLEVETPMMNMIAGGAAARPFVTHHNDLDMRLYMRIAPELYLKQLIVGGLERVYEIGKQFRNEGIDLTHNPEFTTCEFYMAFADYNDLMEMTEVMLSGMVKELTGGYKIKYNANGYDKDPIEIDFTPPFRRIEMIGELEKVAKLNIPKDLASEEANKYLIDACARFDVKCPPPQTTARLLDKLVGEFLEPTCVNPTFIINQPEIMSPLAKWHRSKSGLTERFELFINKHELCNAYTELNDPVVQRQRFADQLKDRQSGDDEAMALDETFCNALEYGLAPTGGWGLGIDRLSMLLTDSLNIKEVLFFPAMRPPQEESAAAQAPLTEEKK
# CSNK1E: Casein kinase I isoform epsilon (CSNK1E, Homo sapiens, UniProt P49674)
# Chain of UniProt P49674 (whole entry, looked up): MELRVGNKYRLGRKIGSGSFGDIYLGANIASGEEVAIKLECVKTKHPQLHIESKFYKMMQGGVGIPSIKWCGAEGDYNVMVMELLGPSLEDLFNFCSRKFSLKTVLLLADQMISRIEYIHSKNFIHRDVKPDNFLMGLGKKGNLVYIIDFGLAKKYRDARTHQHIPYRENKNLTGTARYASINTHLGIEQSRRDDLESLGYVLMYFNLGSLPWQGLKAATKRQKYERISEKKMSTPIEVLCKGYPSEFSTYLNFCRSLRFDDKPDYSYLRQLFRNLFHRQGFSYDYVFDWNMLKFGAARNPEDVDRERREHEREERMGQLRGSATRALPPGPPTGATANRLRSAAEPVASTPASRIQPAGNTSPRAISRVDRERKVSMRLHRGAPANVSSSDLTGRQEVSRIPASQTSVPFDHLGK
# MCL1: Induced myeloid leukemia cell differentiation protein Mcl-1 (MCL1, Homo sapiens, UniProt Q07820)
# Chain of UniProt Q07820 (whole entry, looked up): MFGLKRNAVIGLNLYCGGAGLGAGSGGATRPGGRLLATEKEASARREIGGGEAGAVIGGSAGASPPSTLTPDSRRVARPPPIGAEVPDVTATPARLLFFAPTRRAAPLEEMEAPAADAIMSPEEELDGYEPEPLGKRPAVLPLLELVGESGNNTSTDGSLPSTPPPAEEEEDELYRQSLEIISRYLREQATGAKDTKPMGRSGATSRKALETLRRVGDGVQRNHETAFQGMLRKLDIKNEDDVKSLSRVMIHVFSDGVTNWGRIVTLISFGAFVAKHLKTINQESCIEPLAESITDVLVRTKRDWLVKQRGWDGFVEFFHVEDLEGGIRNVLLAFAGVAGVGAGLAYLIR
# DRD2: D(2) dopamine receptor (DRD2, Homo sapiens, UniProt P14416)
# Chain of UniProt P14416 (whole entry, looked up): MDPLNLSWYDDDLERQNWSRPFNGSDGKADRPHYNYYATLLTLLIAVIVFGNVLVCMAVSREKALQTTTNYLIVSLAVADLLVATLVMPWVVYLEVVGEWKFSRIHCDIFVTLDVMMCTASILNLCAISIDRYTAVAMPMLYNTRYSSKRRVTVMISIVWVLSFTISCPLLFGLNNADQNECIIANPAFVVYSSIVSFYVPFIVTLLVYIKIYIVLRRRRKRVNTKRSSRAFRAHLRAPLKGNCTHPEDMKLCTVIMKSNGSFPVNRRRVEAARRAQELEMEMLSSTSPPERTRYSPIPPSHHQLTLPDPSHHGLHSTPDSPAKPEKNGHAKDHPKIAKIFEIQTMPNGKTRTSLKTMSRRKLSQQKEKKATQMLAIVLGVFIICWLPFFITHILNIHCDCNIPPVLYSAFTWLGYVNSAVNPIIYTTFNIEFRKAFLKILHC
# XDH: Xanthine dehydrogenase/oxidase (XDH, Bos taurus, UniProt P80457)
# DNA polymerase catalytic subunit: DNA polymerase catalytic subunit (Human cytomegalovirus, UniProt P08546)
# Chain of UniProt P08546 (whole entry, looked up): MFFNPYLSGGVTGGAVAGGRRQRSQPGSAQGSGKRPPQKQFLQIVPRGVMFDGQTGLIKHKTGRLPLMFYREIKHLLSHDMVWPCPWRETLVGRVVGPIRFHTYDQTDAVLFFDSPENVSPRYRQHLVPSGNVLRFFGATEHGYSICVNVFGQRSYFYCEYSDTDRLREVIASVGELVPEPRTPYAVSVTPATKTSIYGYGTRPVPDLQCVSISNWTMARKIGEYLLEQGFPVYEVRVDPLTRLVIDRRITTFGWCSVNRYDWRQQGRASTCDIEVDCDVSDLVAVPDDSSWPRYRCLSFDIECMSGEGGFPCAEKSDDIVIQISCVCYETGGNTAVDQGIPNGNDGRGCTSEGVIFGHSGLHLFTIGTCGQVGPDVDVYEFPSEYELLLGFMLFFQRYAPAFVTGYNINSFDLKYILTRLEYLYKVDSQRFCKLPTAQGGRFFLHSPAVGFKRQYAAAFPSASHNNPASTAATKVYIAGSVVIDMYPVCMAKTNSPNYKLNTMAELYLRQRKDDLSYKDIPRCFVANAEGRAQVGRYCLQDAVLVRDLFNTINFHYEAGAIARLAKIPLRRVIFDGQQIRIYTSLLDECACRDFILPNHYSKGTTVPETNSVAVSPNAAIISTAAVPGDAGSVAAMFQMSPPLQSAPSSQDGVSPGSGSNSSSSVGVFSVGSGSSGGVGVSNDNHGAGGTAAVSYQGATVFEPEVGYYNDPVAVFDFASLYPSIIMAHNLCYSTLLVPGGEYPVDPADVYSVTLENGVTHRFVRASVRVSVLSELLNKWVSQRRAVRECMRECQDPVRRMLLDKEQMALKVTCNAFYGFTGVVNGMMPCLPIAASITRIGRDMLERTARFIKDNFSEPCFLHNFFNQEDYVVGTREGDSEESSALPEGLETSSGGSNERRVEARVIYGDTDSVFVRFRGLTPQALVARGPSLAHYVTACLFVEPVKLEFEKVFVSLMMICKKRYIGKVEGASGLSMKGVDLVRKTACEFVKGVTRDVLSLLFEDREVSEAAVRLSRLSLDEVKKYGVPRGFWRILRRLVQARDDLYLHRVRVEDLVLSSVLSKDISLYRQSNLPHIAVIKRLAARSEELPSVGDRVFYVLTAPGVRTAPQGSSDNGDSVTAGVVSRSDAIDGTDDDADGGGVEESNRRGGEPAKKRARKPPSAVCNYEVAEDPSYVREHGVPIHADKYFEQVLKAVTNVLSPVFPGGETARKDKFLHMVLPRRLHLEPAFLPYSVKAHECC
# CDK6 with cyclin D1: Cyclin-dependent kinase 6, with cyclin D1 (CDK6, Homo sapiens, UniProt Q00534)
# Chain of UniProt Q00534 (whole entry, looked up): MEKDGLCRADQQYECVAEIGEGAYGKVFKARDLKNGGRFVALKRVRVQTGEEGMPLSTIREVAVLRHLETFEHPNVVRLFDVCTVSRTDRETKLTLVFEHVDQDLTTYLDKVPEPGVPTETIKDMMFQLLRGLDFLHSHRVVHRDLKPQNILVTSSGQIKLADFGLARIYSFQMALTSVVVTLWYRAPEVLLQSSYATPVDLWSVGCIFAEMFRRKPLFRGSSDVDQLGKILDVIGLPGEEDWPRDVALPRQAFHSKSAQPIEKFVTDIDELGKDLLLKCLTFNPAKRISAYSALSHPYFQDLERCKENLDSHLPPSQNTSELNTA
# NTRK2: BDNF/NT-3 growth factors receptor (NTRK2, Homo sapiens, UniProt Q16620)
# 60 kDa heat shock protein, mitochondrial with HSP10: 60 kDa heat shock protein, mitochondrial, with HSP10 (Homo sapiens, UniProt P10809)
# Chain of UniProt P10809 (whole entry, looked up): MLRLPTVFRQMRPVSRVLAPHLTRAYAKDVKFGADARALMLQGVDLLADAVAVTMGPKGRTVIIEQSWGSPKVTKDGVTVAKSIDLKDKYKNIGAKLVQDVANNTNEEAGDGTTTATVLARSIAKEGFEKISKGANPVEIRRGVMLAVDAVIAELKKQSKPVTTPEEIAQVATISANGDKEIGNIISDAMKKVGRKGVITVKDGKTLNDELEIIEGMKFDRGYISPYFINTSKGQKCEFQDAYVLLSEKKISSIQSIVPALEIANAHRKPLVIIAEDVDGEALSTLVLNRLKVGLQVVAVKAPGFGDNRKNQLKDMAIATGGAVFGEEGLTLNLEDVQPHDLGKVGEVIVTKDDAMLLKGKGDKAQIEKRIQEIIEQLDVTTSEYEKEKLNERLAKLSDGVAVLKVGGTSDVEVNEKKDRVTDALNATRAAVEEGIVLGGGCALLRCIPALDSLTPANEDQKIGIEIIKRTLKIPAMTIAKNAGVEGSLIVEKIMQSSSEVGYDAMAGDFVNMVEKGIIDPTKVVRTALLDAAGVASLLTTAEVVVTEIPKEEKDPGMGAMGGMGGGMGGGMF
# SIRT5: NAD-dependent protein deacylase sirtuin-5, mitochondrial (SIRT5, Homo sapiens, UniProt Q9NXA8)
# Chain of UniProt Q9NXA8 (whole entry, looked up): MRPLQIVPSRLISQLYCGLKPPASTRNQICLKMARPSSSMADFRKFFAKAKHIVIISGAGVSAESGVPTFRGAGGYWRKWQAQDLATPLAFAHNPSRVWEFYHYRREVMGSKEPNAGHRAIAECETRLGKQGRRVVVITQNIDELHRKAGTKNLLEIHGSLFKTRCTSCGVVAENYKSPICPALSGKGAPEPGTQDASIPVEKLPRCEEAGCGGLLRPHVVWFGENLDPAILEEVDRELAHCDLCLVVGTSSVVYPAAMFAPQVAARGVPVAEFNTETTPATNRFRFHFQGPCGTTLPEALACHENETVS
# TAF1L BD2: Transcription initiation factor TFIID subunit 1-like, BD2 (TAF1L, Homo sapiens, UniProt Q8IZX4)
Structure (SMILES),target,assay,system,conditions,IC50
C[C@H]1CN(C)CCCN1c1nccc(-c2noc([C@@]3(C)CCCc4sc(N)c(C#N)c43)n2)n1,KRAS with SOS1,"KRAS wild type-SOS1 interaction, inhibitor, AlphaScreen",,geometric mean,0.03 µM
NS(=O)(=O)c1ccc(-n2nc(-c3ccc(C(F)(F)F)cc3O)nc2-c2ccccc2O)cc1,PTGS2,inhibitor,,,0.54 µM
Nc1nsc(C(=O)NC2CCC3(CC2)CC3(F)F)c1Cl (stereo not shown),"Lysine--tRNA ligase, cytoplasmic","enzyme activity, inhibitor",,,> 100 µM
Cc1ccccc1-c1nc(-c2ccc(F)cc2)c(-c2ccncc2)[nH]1,CSNK1E,inhibitor,,,0.19 ± 0.0369 µM
"C=CCn1c(Br)c(-c2cccc(Cl)c2C)c2c(N[C@H](Cc3ccccc3)C(=O)O)ncnc21 (single isomer, unassigned)",MCL1,,,,2.5 µM
O=C(O)/C(=C/c1c(C(=O)O)[nH]c2cc(Cl)cc(Cl)c12)c1ccccc1,"Grin1 (Rattus norvegicus, UniProt P35439)","binding, radioligand binding",,,0.00934 µM
Cc1[nH]c(C)c(S(=O)(=O)Nc2ccc(C(F)(F)F)c(Cl)c2)c1C(=O)N1C[C@@H](F)[C@@H](F)C1,DRD2,,,,> 100 µM
Cn1cnc(Cn2ccc3ccc(CNCc4[nH]c5ccccc5c4[C@H]4NC(=O)c5ccc(O)cc54)cc32)c1,"GTPase KRas, GppNHp; with RAF1 RBD (KRAS, Homo sapiens, UniProt P01116, A146T)",HTRF,,,5.9 ± 1.9 µM
COc1cc(/C=N/n2c(C)nc3ccc(C)cc3c2=O)ccc1OCc1ccccc1,XDH,"enzyme activity, inhibitor",,,145 ± 5.97 µM
Cc1[nH]c(C)c(S(=O)(=O)Nc2ccc(S(N)(=O)=O)c(Cl)c2)c1C(=O)N1CCC(F)(F)C1,DRD2,,,,> 100 µM
O=C(Nc1cnccc1Cl)N1CCN(Cc2ccc3c(c2)OC(F)(F)O3)CC1,"FAAH (Homo sapiens, UniProt O00519)","enzyme activity, inhibitor",COS cells expressing human FAAH,24 h,0.0415 µM
[O]=[V]([OH])([OH])[OH],plasma membrane Ca2+ ATPase human,"Ca2+ efflux, inhibitor, Rhod-FF fluorescence",human erythrocytes,"pH 7.2, room temperature",90 ± 30 µM
Cc1ccc(NS(=O)(=O)CCC(=O)N[C@@H](C)CC(=O)N2CCCC2)cc1Cl,DRD2,,,,> 100 µM
Cc1ccc(-c2cc(Br)cc(Br)c2)n1-c1cc(F)cc(F)c1,PTGS2,"enzyme activity, inhibitor, fluorogenic resorufin",,,12.4 ± 0.2 µM
CC1(F)CN(C(=O)Cn2c(=O)c(C(=O)NCc3ccc(Cl)cc3)cc3nc(N4CCOC4=O)cnc32)C1,DNA polymerase catalytic subunit,enzyme activity,,at least duplicate,0.29 µM
Cc1nc2c(F)cc(-c3ccnc(Nc4ccc5c(=O)cc(N6CCOCC6)oc5c4)n3)cc2n1C(C)C,CDK6 with cyclin D1,"inhibitor, HotSpot radiometric kinase",,"together with: 10 µM ATP, cyclin D1",0.0131 µM
C[C@H]1CNCCN1c1cccc(-c2noc([C@@]3(C)CCCc4sc(N)c(C#N)c43)n2)n1,KRAS with SOS1,"KRAS wild type-SOS1 interaction, inhibitor, AlphaScreen",,geometric mean,0.053 µM
CCCCCCCCCCOC(C)=O,"uncharacterized protein (Spodoptera exigua, UniProt F1CEY0)","binding, fluorescence competitive binding",,together with: 1-NPN 2.0 µM,6.74 µM
Cc1cccc(-c2nc(-c3ccc(C(N)=O)cc3)[nH]c2-c2ccncc2)c1,CSNK1E,inhibitor,,,0.3 ± 0.016 µM
COc1cc2nccc(Oc3ccc(NC(=O)c4cc5c(n(-c6ccccc6)c4=O)CCCC5=O)nc3)c2cc1OC,"NTRK3 (Homo sapiens, UniProt Q16288)","cell viability, CellTiter-Glo",Ba/F3 expressing recombinant kinase,48 h,> 0.1 µM
CN1CCN(c2ccc(Nc3ncc4cc(C#N)c(=O)n(C5CCCC5)c4n3)cc2)CC1,"SLK (Homo sapiens, UniProt Q9H2G2)",,,,0.527 µM
COc1cc(N2CCC(N3CCN(C)CC3)CC2)ccc1Nc1ncc(Cl)c(Nc2ccccc2P(C)(C)=O)n1,NTRK2,"enzyme activity, inhibitor",,together with: 1 mM ATP,> 3.3 µM
Cc1[nH]cc(S(=O)(=O)Nc2ccc(C(F)(F)F)c(Cl)c2)c1C(=O)N1CCC(F)(F)C1,DRD2,,,,> 100 µM
CC#CC(=O)N1CC[C@@H](n2c(=O)n(-c3ccc(Oc4ccccc4)cc3)c3c(N)ncnc32)C1,"Phosphatidylinositol 4,5-bisphosphate 3-kinase catalytic subunit delta isoform, with p85alpha (PIK3CD, Homo sapiens, UniProt O00329)",,,,> 5 µM
C[C@]1(c2nc(-c3cccc(N4CCNCC4)c3)no2)CCCc2sc(N)c(C#N)c21,KRAS with SOS1,"KRAS WT-SOS1 interaction, inhibitor, AlphaScreen",,,≤ 1 µM
Cc1[nH]c(C)c(S(=O)(=O)Nc2ccc(C(F)(F)F)c(Cl)c2)c1S(=O)(=O)Nc1ccc(C(F)(F)F)c(Cl)c1,DRD2,,,,> 100 µM
Cn1ncc2c(Cl)c(C(=O)NCc3ccccc3)cnc21,"60 kDa heat shock protein, mitochondrial with HSP10",ATPase activity,,"30 min, together with: HSP10",> 250 µM
Cc1ccc(NS(=O)(=O)c2[nH]nc(C)c2C(=O)N2CCC(F)(F)C2)cc1Cl,DRD2,,,,> 100 µM
O=C(NC1CCC1)[C@H](Cc1c[nH]c2ccccc12)NC(=O)[C@H](CCCCNC(=S)NCCn1nn[nH]c1=O)NS(=O)(=O)c1cccc(F)c1,SIRT5,"enzyme activity, inhibitor",,,1.5 ± 0.1 µM
C[C@]1(c2nc(-c3cccc(N4CCNCC4)n3)no2)CCCc2sc(N)c(C#N)c21,KRAS with SOS1,"KRAS wild type-SOS1 interaction, inhibitor, AlphaScreen",,geometric mean,0.461 µM
O=C(NC1CCC1)[C@H](Cc1c[nH]c2ccccc12)NC(=O)[C@H](CCCCNC(=S)NCc1cc(O)no1)NS(=O)(=O)c1cccc(F)c1,SIRT5,"enzyme activity, inhibitor",,,5.9 ± 0.2 µM
CCCNc1ccc2c3c(cccc13)C(=O)N(c1cc3c(cc1C)n(C)c(=O)n3C)C2=O,TAF1L BD2,HTRF,,GST-tagged protein,0.0223 µM
Cc1cnc(NS(=O)(=O)c2c(C)[nH]c(C)c2C(=O)N2CCC(F)(F)C2)cc1Cl,DRD2,,,,> 100 µM
CN(C)C(=O)c1cc2cnc(Nc3cccc4c(=O)cc(N5CCOCC5)oc34)nc2n1C1CCCC1,CDK6 with cyclin D1,"inhibitor, HotSpot radiometric kinase",,"together with: 10 µM ATP, cyclin D1",> 10 µM
Cc1cc(Nc2ncc(Cl)c(Nc3ccccc3S(=O)(=O)C(C)C)n2)c(OC(C)C)cc1C1CCNCC1,NTRK2,cell-based,,,> 9.19 µM
Cc1c(N2CCOCC2)oc2c(-c3ccc(Nc4ncc5cc(C(=O)N(C)C)n(C6CCCC6)c5n4)cc3F)cccc2c1=O,CDK6 with cyclin D1,"inhibitor, HotSpot radiometric kinase",,"together with: 10 µM ATP, cyclin D1",6.04 µM
Cc1ccc2[nH]nc(-c3nnc(Nc4ccc(O)cc4)s3)c2c1,α-glucosidase,"enzyme activity, inhibitor",,"pH 6.8, together with: p-nitrophenyl-α-D-glucopyranoside",4.25 ± 1.23 µM
Cc1nn(C)c2ncc(C(=O)Nc3ccccc3)c(Cl)c12,"60 kDa heat shock protein, mitochondrial with HSP10",HSP60/10-mediated MDH refolding,,"30 min, preincubation before ATP, together with: denatured malate dehydrogenase",3.8 µM
CC1CCC(CNC(=O)c2snc(N)c2Cl)CC1 (stereo not shown),"Lysine--tRNA ligase, cytoplasmic","enzyme activity, inhibitor",,,2 µM
CN1CCN(c2cnc3c(cc(C(=O)NCc4ccc(Cl)cc4)c(=O)n3CC(=O)N3CC(C)(F)C3)n2)C1=O,DNA polymerase catalytic subunit,enzyme activity,,at least duplicate,0.31 µM
CCc1nc(C(N)=O)c(Nc2ccc(N3CCC(N4CCN(C)CC4)CC3)c(OC)c2)nc1NC1CCOCC1,"SLC22A1 (Homo sapiens, UniProt O15245)","OCT1-mediated TEA uptake, inhibitor",HEK293 expressing OCT1,"15 min, together with: radiolabelled tetraethylammonium",0.157 µM
CCCOc1cc2c(cc1C(=C1CC1)c1ccc(C(=O)O)cc1)C(C)(C)CCC2(C)C,"RXRA (Homo sapiens, UniProt P19793)",binding,,together with: [3H]9-cis-retinoic acid,0.046 µM
C=CCN(CC=C)C(=O)c1c(C)[nH]c(C)c1S(=O)(=O)Nc1ccc(C(F)(F)F)c(Cl)c1,DRD2,,,,> 100 µM
Fc1ccc(-c2nc(-c3ccc4ccccc4c3F)[nH]c2-c2ccncc2)cc1,CSNK1E,inhibitor,,,0.016 ± 0.003 µM
Cc1cc2c(cc1N1C(=O)c3cccc4c(N5CCN(CC6CC6)CC5)ccc(c34)C1=O)n(C)c(=O)n2C,TAF1L BD2,HTRF,,GST-tagged protein,0.0334 µM
CC(=O)C1=C(O)C(=O)N(c2ccc(Br)cc2F)C1C1CCCCC1 (stereo not shown),"CCR1 (Homo sapiens, UniProt P32246)",inverse agonist,U2OS expressing CCR1,no CCL3,0.166 µM
CCn1c(-c2nc3cc(C(=O)N4CCC[C@@H](N)C4)cc(OC)c3n2C)cc2cccnc21,DRD2,"antagonist, GTPγS LEADseeker",,,39.8 µM
COc1ccccc1-c1nccc(COc2ccccc2C[C@@H](Oc2ncnc3c2c(-c2ccc(OCCN4CCN(C)CC4)c(Cl)c2C)c(-c2ccc(F)cc2)n3C)C(=O)O)n1,MCL1,"binding, quench",,,0.00064 µM
O=C(Nc1ccc(OS(=O)(=O)c2ccc(Cl)cc2)cc1)c1cnccn1,"P2X purinoceptor 7 (P2RX7, Homo sapiens, UniProt Q99572)","calcium mobilization, antagonist",MCF7 transfected with P2RX7,together with: 100 µM BzATP,1.33 ± 0.132 µM
O=C(O)Cc1cscc1Nc1c(Cl)cccc1Cl,PTGS2,inhibitor,,,0.03 µM
CCc1ccc(/C=N/n2c(C)nc3ccc(C)cc3c2=O)s1,XDH,"enzyme activity, inhibitor",,,68.4 ± 1.35 µM
Cc1cc(O)cc(Nc2nnc(-c3n[nH]c4ccc(C)cc34)s2)c1,α-glucosidase,"enzyme activity, inhibitor",,"pH 6.8, together with: p-nitrophenyl-α-D-glucopyranoside",6.35 ± 1.56 µM
COc1ccc(-c2coc3cc(O)cc(O)c3c2=O)cc1,"HSD3B1 (Homo sapiens, UniProt P14060)","DHEA metabolism, inhibitor",VCaP,together with: [3H]-DHEA,0.224 µM
Cc1cc2c(cc1N1C(=O)c3cccc4c(N(C)CCN5CCCC5)ccc(c34)C1=O)n(C)c(=O)n2C,TAF1L BD2,HTRF,,GST-tagged protein,0.0327 µM
Nc1nsc(C(=O)NCc2c(F)cccc2Cl)c1Cl,"Lysine--tRNA ligase, cytoplasmic","enzyme activity, inhibitor",,,> 100 µM

# A few entries again:
Structure (SMILES),target,assay,system,conditions,IC50
NS(=O)(=O)c1ccc(-n2nc(-c3ccc(C(F)(F)F)cc3O)nc2-c2ccccc2O)cc1,PTGS2,inhibitor,,,0.54 µM
Nc1nsc(C(=O)NC2CCC3(CC2)CC3(F)F)c1Cl (stereo not shown),"Lysine--tRNA ligase, cytoplasmic","enzyme activity, inhibitor",,,> 100 µM
Cc1ccccc1-c1nc(-c2ccc(F)cc2)c(-c2ccncc2)[nH]1,CSNK1E,inhibitor,,,0.19 ± 0.0369 µM
"C=CCn1c(Br)c(-c2cccc(Cl)c2C)c2c(N[C@H](Cc3ccccc3)C(=O)O)ncnc21 (single isomer, unassigned)",MCL1,,,,2.5 µM
